Results pooled from the literature.
Each line is one published result; not all experiments were run side by side. “And” joins repeats or separate records; there may be more than shown. ± gives the spread as reported.

| SMILES | cell line | test | test system | conditions | scale | measurement | result |
| --- | --- | --- | --- | --- | --- | --- | --- |
| OCCCN1CC[C@@H]2C[C@H]1c1cc(-c3ccc(C(F)(F)F)cc3)ccc12 | neurons, DRG, mouse, wild type | item: p-eIF2α | – | 100 nM | – | time to maximal effect | 16 h |
| Nc1nnc(-c2ccccc2O)cc1N1CCN(Cc2ccc(OCCOCCNc3cccc4c3C(=O)N(C3CCC(=O)NC3=O)C4=O)c(F)c2)CC1 (centres unmarked) | NCI-H1975 (SMARCA4 wild type) | ATAC-seq | – | 1 µM, 96 h | – | enhancers shared with DMSO | 88% |
| O=C(/C=C/C=C/C=C/C1CCCCC1)NC1=C[C@@](O)(/C=C/C=C/C=C/C(=O)NC2=C(O)CCC2=O)[C@@H]2O[C@@H]2C1=O | MEL-JUSO | CellTiter-Glo | – | 78 h | – | GI50 | 24 µM |
| CC[C@H](CO)Nc1nc(NCc2ccc(-c3ccccn3)cc2)c2ncn(C(C)C)c2n1 | NCI60 tumour cell lines | – | – | – | – | TGI | 2.57 µM |
| OCc1ccc(-c2nn(Cc3ccccc3F)c3ccccc23)o1 | RBE | cell viability, CellTiter-Glo | – | – | – | IC50 | 1.19 µM |
| COc1cnc2cccc(N3CCc4c(cc(Cn5ccnc5C)cc4-c4cn(C)nc4C(F)(F)F)C3=O)c2c1 | BT-474 | cell growth, inhibitor | – | 120 h | – | EC50 | 21.9 µM |
| Cc1cnc(Cn2nc(-c3ccc(CO)o3)c3ccccc32)s1 | RBE | cell viability, CellTiter-Glo | – | – | – | IC50 | 1.03 µM |
| Cc1cccc(-c2[nH]c(CNc3ccccc3F)nc2-c2ccc3ncnn3c2)n1 | CD8+ T cells from myeloma patient | ELISA | human | 1 µM | – | TNF-alpha production | 1.16% and 1.04% and 0.99% and 1.07% and 1.13% and 0.988% |
| CC1(C)CCC(CN2CCN(c3ccc(C(=O)NS(=O)(=O)c4ccc(NCC5CCOCC5)c([N+](=O)[O-])c4)c(Oc4cnc5[nH]ccc5c4)c3)CC2)=C(c2ccc(Cl)cc2)C1 | THP-1 | annexin V/PI flow cytometry, item: annexin V-/PI+ | – | 3.2 µM, 24 h | – | necrotic cells | 0.2% |
| C=CC1=C(C)c2cc3[n-]c(cc4nc(cc5[n-]c(cc1n2)c(C)c5C=C)C(C)=C4CCC(=O)O)c(CCC(=O)O)c3C.[Zn+2] | SH-SY5Y | RNA-seq, item: EDN1 mRNA | – | 5 µM, 5 h | baseline: untreated cells | fold change | 3.65 |
| CCn1cc(-c2cc(Cn3ccoc3=N)cc3c2CCN([C@@H](C)c2cc(OC)ccn2)C3=O)c(C(F)(F)F)n1 | NCI-H1373 | cell growth, inhibitor | – | 120 h | – | EC50 | > 30 µM |
| COc1ccc(COc2ccc(Cc3cnc(N)nc3N)cc2OC)cc1 | hiPSC-derived cardiomyocytes (iCell) | impedance | – | concentration not given, 24 h | baseline: control | cell index | 98.1% |
| Cc1nn(-c2ccccc2Cl)c(C)c1C(=O)Nc1ccc2ccccc2n1 | Wnt-HEK293 | Wnt/β-catenin signalling, inhibitor, luciferase reporter | – | 1 µM | – | inhibition | > 70% |
| COc1cc2ncnc(Nc3ccc(Oc4ccccc4)cc3C)c2cc1OC.O=C(O)C(F)(F)F | HepG2 (NRAS Q61L) | resazurin | – | concentration not given, 72 h, added: trametinib | direction not given | Bliss synergy score | 136% |
| Cc1cc(Nc2ncc(Cl)c(Nc3ccccc3S(=O)(=O)C(C)C)n2)c(OC(C)C)cc1C1CCNCC1 | CLB-GE | phosphoproteomics LC-MS/MS, item: GAB2 phosphorylation | – | 200 nM, 60 min | baseline: untreated | log2 fold change | -3.53 |
| CCOC(=O)CSc1nc(-c2ccc(Cl)cc2)c2c(NC(=O)c3ccccc3)nnc-2[nH]1 | SF-295 | SRB | – | 10 µM, NCI60 single-dose screen | baseline: untreated | cell growth | 94.8% |
| Nc1cccc2c1C(=O)N(C1CCC(=O)NC1=O)C2=O (centres unmarked) | bone marrow CD138+ myeloma cells | XTT | – | 2 µM, phenol red-free RPMI | – | viability | 6% |
| C=Cc1c2[n-]c(c1C)/C=c1\[n-]/c(c(C)c1C=C)=C\c1[n-]c(c(CCC(=O)O)c1C)/C=c1\[n-]c(c(C)c1CCC(=O)O)=C2.[Sn+4] | SH-SY5Y | RNA-seq, item: SPRY1 mRNA | – | 5 µM, 5 h | baseline: untreated cells | fold change | 3.38 |
| CC/C(=N\NC(=O)NCc1cccc(O)c1)c1ccc(O)c(C)c1O | SK-OV-3 | Western blot, item: YAP | – | 10 µM, 6 h, 3D gellan gum culture, unit not given | baseline: β-actin | protein level | 0.86 ± 0.16 |
| OCc1ccc(-c2nn(Cc3ccccn3)c3cccnc23)o1 | RBE | cell viability, CellTiter-Glo | – | – | – | IC50 | 2.21 µM |
| COc1cc(Oc2ccnc3cc(OC)c(OC)cc23)ccc1NC(=O)NC(C)c1nccs1 (centres unmarked) | hiPSC-derived cardiomyocytes (iCell) | impedance | – | concentration not given, 24 h | baseline: control | cell index | 102% |

| SMILES | cell line | test | test system | conditions | scale | measurement | result |
| --- | --- | --- | --- | --- | --- | --- | --- |
| NC(=O)NOCCCCCCCCCC[P+](c1ccccc1)(c1ccccc1)c1ccccc1.O=C([O-])C(F)(F)F | HCT-116 | cell growth, live-cell imaging | – | 10 µM, control at 90% confluence | – | cell confluence | 26.8% |
| CCN(Cc1ccccc1F)c1ccc(CO)c(Cl)c1 | RBE | cell viability, CellTiter-Glo | – | – | – | IC50 | 0.29 µM |
| CCn1cc(-c2cc(Cn3ccnc3)cc3c2CCN([C@H](c2cc(OC)ccn2)C2CC2)C3=O)c(C(F)(F)F)n1 | IM95 | cell growth, inhibitor | – | 120 h | – | EC50 | 4.68 µM |
| NC(=O)NOCCCCCCCCCCCC[P+](c1ccccc1)(c1ccccc1)c1ccccc1.O=C([O-])C(F)(F)F | HCT-116 | cell growth, live-cell imaging | – | 2 µM, control at 90% confluence | – | cell confluence | 25.6 ± 3.87% |
| Cc1nc(NC(=O)N2CCC[C@H]2C(N)=O)sc1-c1ccnc(C(C)(C)C(F)(F)F)c1 | EFM-19 | cell growth, CellTiter-Glo | – | 120 h | – | Hill coefficient GR curve | 1.01 |
| Cc1ccc(NC(=O)c2ccc(CN3CCN(C)CC3)cc2)cc1Nc1nc(-c2cccnc2)cs1 | hiPSC-derived cardiomyocytes (iCell) | impedance (xCELLigence Cardio) | – | concentration not given, 2 h | baseline: control | beat rate | 99.5% |
| CN(Cc1ccc(F)cc1)c1ccc(CO)c(Cl)c1 | RBE | cell viability, CellTiter-Glo | – | – | – | IC50 | 0.26 µM |
| COc1cc(C2C3=C(COC3=O)N(CCO)c3cc4c(cc32)CCC4)cc(OC)c1OC (centres unmarked) | 4T1 | colony formation | – | 0.1 to 0.5 µM, 6 to 10 days | – | clonogenic growth | inhibited |
| Cn1cc(-c2ccc(-c3cncc(Cl)c3N3CCC4(CCNC4=O)CC3)cc2)cn1 | COLO 205 | gene expression, microarray, item: VAV3 mRNA | – | concentration not given, 6 h | baseline: untreated cells | log2 fold change | 1.16 |
| NC(=O)NOCCCCCCCCCCCCCCCCCCCC[P+](c1ccccc1)(c1ccccc1)c1ccccc1.O=C([O-])C(F)(F)F | HCT-116 | cell growth, live-cell imaging | – | 0.2 µM, control at 90% confluence | – | cell confluence | 70.1 ± 1.95% |
| CCN(CCO)CCCC(C)Nc1ccnc2cc(Cl)ccc12 (centres unmarked) | hiPSC-derived cardiomyocytes | perforated patch voltage clamp | – | 10 µM, added: hyperpolarizing step to -120 mV | – | funny current | -22 pA and -29.1 pA and -27.3 pA and -5.4 pA and -4.9 pA |
| CC1=CC(=O)c2ccccc2C1=O | HuCC-A1 | MTT | – | – | baseline: IC50 MRC-5 over IC50 HuCC-A1 | selectivity index | 0.98 |
| Cn1cc(-n2cnc3c(NCc4nc5cc(Cl)c(Cl)cc5[nH]4)nc(N4CCOCC4)nc32)cn1 | MDA-MB-231 | qRT-PCR, item: RAD51 | – | 0.05 µM, 6 h, unit not given | baseline: DMSO | mRNA level | 0.635 and 0.619 |
| Cc1cnc(NC2CCOCC2)nc1-n1cnc(C(=O)NC(CN)c2cc(F)cc(Cl)c2)c1 (centres unmarked) | Rec1 | flow cytometry | – | 1 µM, 72 h | – | sub-G0 cells | 1.3% |
| C[C@H](CCC(=O)NCCS(=O)(=O)O)[C@H]1CC[C@H]2[C@@H]3CC[C@@H]4C[C@H](O)CC[C@]4(C)[C@H]3CC[C@]12C | human PKD renal epithelial cells | cell counting | – | 20 µM, 24 h | baseline: untreated | proliferation increase | 36% |
| NC(=O)NOCCCCCCCCCCCCCCCC[P+](c1ccccc1)(c1ccccc1)c1ccccc1.O=C([O-])C(F)(F)F | HCT-116 | cell growth, live-cell imaging | – | 3 µM, control at 90% confluence | – | cell confluence | 5.35% |
| CC(C)NCC(O)c1ccc(O)c(O)c1 (centres unmarked) | mouse ventricular cardiomyocytes | – | – | dose not given, 0.279 s | – | sarcomere length | 1.8 µm |
| COc1ccc(-n2nc(C(C)=O)s/c2=N\N=C(/C)c2ccc(NC(=O)c3ccc(Cl)cc3)cc2)cc1 | MCF7 | – | – | 1.25 µM | – | toxicity | 91.2% |
| CC(C)(N)c1cc(C(=O)N[C@@H]2CCc3ccc(Oc4ccnc5c4CCC(=O)N5)cc3C2)cc(C(F)(F)F)c1 | SK-MEL-239 | ERK phosphorylation, inhibitor, Western blot, item: p-ERK/total ERK | – | 1 h | – | IC75 | 0.309 µM |
| Nc1ncnc2c1ncn2[C@@H]1O[C@H](CO)[C@@H](O)[C@H]1O | activated human T cells | – | – | 10 µM | higher = more TNF | TNF production | 3290 a.u. and 3090 a.u. and 3140 a.u. |

For quick reference, copied from above:
| SMILES | cell line | test | test system | conditions | scale | measurement | result |
| --- | --- | --- | --- | --- | --- | --- | --- |
| Cn1cc(-n2cnc3c(NCc4nc5cc(Cl)c(Cl)cc5[nH]4)nc(N4CCOCC4)nc32)cn1 | MDA-MB-231 | qRT-PCR, item: RAD51 | – | 0.05 µM, 6 h, unit not given | baseline: DMSO | mRNA level | 0.635 and 0.619 |
| Cc1cnc(NC2CCOCC2)nc1-n1cnc(C(=O)NC(CN)c2cc(F)cc(Cl)c2)c1 (centres unmarked) | Rec1 | flow cytometry | – | 1 µM, 72 h | – | sub-G0 cells | 1.3% |
| C[C@H](CCC(=O)NCCS(=O)(=O)O)[C@H]1CC[C@H]2[C@@H]3CC[C@@H]4C[C@H](O)CC[C@]4(C)[C@H]3CC[C@]12C | human PKD renal epithelial cells | cell counting | – | 20 µM, 24 h | baseline: untreated | proliferation increase | 36% |
| NC(=O)NOCCCCCCCCCCCCCCCC[P+](c1ccccc1)(c1ccccc1)c1ccccc1.O=C([O-])C(F)(F)F | HCT-116 | cell growth, live-cell imaging | – | 3 µM, control at 90% confluence | – | cell confluence | 5.35% |
